Results from different studies.
Each line is one published result; not all experiments were run side by side. “And” joins repeats or separate records; there may be more than shown. ± gives the spread as reported.

Structure (SMILES) = CC(=O)c1c(C)c2cnc(Nc3ccc(C4CCN(CCS(C)(=O)=O)CC4)cn3)nc2n(C2CCCC2)c1=O; test system = mouse Colo-205 xenograft; setting = 80 mg/kg twice daily; endpoint = body weight loss; result = < 10%
Structure (SMILES) = N.N.[Cl][Pt][Cl]; test system = nude mouse MCF7 xenograft; setting = 5 mg/kg, day 6; endpoint = body weight; result = 15.1 ± 0.74 g
Structure (SMILES) = CC(C)[C@@H]1NC(=O)CNC(=O)[C@H](CC(N)=O)NC(=O)[C@H](CCCNC(=N)N)NC(=O)[C@H](Cc2ccc(O)cc2)NC(=O)[C@H](C(C)C)NC(=O)[C@@H](NC(=O)[C@@H](NC(=O)[C@H](CC(N)=O)NC(=O)[C@H](Cc2c[nH]c3ccccc23)NC(=O)[C@H](C)NC(=O)[C@H](Cc2ccccc2)NC(=O)CN)C(C)C)CSSC[C@@H](C(=O)N[C@@H](Cc2cnc[nH]2)C(=O)N[C@@H](CCCNC(=N)N)C(=O)N[C@@H](CCCNC(=N)N)C(=O)N[C@@H](C)C(=O)N[C@@H](CC(N)=O)C(N)=O)NC(=O)[C@H](C(C)C)NC(=O)[C@H](CCCNC(=N)N)NC1=O; test system = ICR mouse; setting = ip, 5 mg/kg; how to read = direction not given; endpoint = body posture score; result = 0
Structure (SMILES) = COc1cccc2c1C(=O)c1c(O)c3c(c(O)c1C2=O)C[C@@](O)(C(=O)CO)C[C@@H]3O[C@H]1C[C@H](N)[C@H](O)[C@H](C)O1; test system = CD-1 mouse; setting = intravenous, 5 mg/kg; how to read = negative means weight gain; endpoint = body weight loss; result = -17.7%
Structure (SMILES) = CO[C@H]1C[C@@H]2CC[C@@H](C)[C@@](O)(O2)C(=O)C(=O)N2CCCC[C@H]2C(=O)O[C@H]([C@H](C)C[C@@H]2CC[C@@H](OC(=O)NCCOCCOCCOCCOCCOCCOCCOCCOCCC(=O)N3CCc4cc(Cn5nc(-c6ccc7oc(N)nc7c6)c6c(N)ncnc65)ccc4C3)[C@H](OC)C2)C[C@@H](O)[C@H](C)/C=C(\C)[C@@H](O)[C@@H](OC)C(=O)[C@H](C)C[C@H](C)/C=C/C=C/C=C/1C; test system = mouse, HCC1954 xenograft; setting = 1 and 3 mg/kg, weekly; endpoint = body weight; result = not toxic
Structure (SMILES) = N.N.[Cl][Pt][Cl]; test system = mouse xenograft model; setting = dose not given, day 0; endpoint = body weight; result = 25 g and 26 g and 24 g
Structure (SMILES) = CC(C)C[C@H](NC(=O)[C@H](CCCCN)NC(=O)OCC1c2ccccc2-c2ccccc21)C(=O)N[C@H](C(=O)N[C@@H](Cc1ccccc1)C(=O)N[C@@H](Cc1ccccc1)C(=O)N[C@@H](CCCCN)C(=O)NCC(=O)N[C@@H](Cc1ccccc1)C(=O)N[C@@H](C)C(=O)N[C@@H](Cc1c[nH]c2ccccc12)C(=O)N[C@@H](CC(N)=O)C(=O)N[C@H](C(=O)N[C@H]1CSSC[C@@H](C(=O)N[C@@H](Cc2c[nH]cn2)C(=O)N[C@@H](CCCNC(=N)N)C(=O)N[C@@H](CCCNC(=N)N)C(=O)N[C@@H](C)C(=O)N[C@@H](CC(N)=O)C(N)=O)NC(=O)[C@H](C(C)C)NC(=O)[C@H](CCCNC(=N)N)NC(=O)[C@H](C(C)C)NC(=O)CNC(=O)[C@H](CC(N)=O)NC(=O)[C@H](CCCNC(=N)N)NC(=O)[C@H](Cc2ccc(O)cc2)NC(=O)[C@H](C(C)C)NC1=O)C(C)C)C(C)C; test system = ICR mouse; setting = ip, 5 mg/kg; how to read = direction not given; endpoint = body posture score; result = 0
Structure (SMILES) = CCCCc1nc2cc(/C=C/C(=O)NO)ccc2n1CCN(CC)CC; test system = mouse, MOLM-13 subcutaneous xenograft; setting = 125 mg/kg every other day, day 7; how to read = baseline: baseline; endpoint = body weight; result = 99.5%
Structure (SMILES) = CC(C)(Nc1nc(-c2ccccn2)nc2ccccc12)c1ccccn1; test system = mouse; setting = dose not given, day 3; how to read = baseline: pretest; endpoint = body weight decrease; result = ≤ 21%
Structure (SMILES) = CC(C)C[C@H](NC(=O)CN)C(=O)N[C@@H](CCCCN)C(=O)N[C@@H](CCCCN)C(=O)N[C@@H](CC(C)C)C(=O)N[C@@H](CC(C)C)C(=O)N[C@@H](CC(C)C)C(=O)N[C@@H](CC(C)C)C(=O)N[C@@H](CC(C)C)C(=O)N[C@@H](CCCCN)C(=O)N[C@@H](CCCCN)C(=O)N[C@@H](CC(C)C)C(=O)NCC(=O)NCC(=O)NCC(=O)N[C@@H](Cc1ccc(O)cc1)C(=O)N[C@H](C(=O)N[C@@H](CC(C)C)C(=O)N[C@@H](CO)C(=O)N[C@@H](CC(=O)O)C(=O)N[C@@H](CCCNC(=N)N)C(=O)N[C@@H](CO)C(=O)N[C@@H](Cc1c[nH]cn1)C(=O)N[C@@H](CC(N)=O)C(=O)N1CCC[C@H]1C(=O)N[C@@H](Cc1ccccc1)C(=O)N[C@@H](CC(N)=O)C(=O)O)[C@@H](C)O; test system = C57BL/6 mouse; setting = intraperitoneal, 40 mg/kg, 5 days; how to read = baseline: untreated; endpoint = body weight; result = no effect

For quick reference, copied from above:
Structure (SMILES) = CO[C@H]1C[C@@H]2CC[C@@H](C)[C@@](O)(O2)C(=O)C(=O)N2CCCC[C@H]2C(=O)O[C@H]([C@H](C)C[C@@H]2CC[C@@H](OC(=O)NCCOCCOCCOCCOCCOCCOCCOCCOCCC(=O)N3CCc4cc(Cn5nc(-c6ccc7oc(N)nc7c6)c6c(N)ncnc65)ccc4C3)[C@H](OC)C2)C[C@@H](O)[C@H](C)/C=C(\C)[C@@H](O)[C@@H](OC)C(=O)[C@H](C)C[C@H](C)/C=C/C=C/C=C/1C; test system = mouse, HCC1954 xenograft; setting = 1 and 3 mg/kg, weekly; endpoint = body weight; result = not toxic
